Measured values gathered from unrelated publications.
Each numbered part is a random draw from the data of one study; scales do not carry over between parts.
Chain of UniProt P31751 (whole entry, looked up): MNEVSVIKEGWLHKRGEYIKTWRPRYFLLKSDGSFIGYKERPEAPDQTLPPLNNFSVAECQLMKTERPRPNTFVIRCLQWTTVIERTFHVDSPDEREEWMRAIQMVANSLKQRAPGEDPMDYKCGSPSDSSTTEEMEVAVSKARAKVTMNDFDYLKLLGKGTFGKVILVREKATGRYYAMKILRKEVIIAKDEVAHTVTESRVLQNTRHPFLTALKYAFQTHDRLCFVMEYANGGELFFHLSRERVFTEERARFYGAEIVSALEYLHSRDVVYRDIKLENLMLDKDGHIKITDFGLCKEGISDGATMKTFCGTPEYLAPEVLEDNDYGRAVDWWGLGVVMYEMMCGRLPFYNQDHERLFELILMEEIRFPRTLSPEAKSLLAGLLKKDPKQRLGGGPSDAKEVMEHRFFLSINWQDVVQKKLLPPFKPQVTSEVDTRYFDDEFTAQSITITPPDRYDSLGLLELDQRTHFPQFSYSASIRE
Chain of UniProt Q56UN5 (whole entry, looked up): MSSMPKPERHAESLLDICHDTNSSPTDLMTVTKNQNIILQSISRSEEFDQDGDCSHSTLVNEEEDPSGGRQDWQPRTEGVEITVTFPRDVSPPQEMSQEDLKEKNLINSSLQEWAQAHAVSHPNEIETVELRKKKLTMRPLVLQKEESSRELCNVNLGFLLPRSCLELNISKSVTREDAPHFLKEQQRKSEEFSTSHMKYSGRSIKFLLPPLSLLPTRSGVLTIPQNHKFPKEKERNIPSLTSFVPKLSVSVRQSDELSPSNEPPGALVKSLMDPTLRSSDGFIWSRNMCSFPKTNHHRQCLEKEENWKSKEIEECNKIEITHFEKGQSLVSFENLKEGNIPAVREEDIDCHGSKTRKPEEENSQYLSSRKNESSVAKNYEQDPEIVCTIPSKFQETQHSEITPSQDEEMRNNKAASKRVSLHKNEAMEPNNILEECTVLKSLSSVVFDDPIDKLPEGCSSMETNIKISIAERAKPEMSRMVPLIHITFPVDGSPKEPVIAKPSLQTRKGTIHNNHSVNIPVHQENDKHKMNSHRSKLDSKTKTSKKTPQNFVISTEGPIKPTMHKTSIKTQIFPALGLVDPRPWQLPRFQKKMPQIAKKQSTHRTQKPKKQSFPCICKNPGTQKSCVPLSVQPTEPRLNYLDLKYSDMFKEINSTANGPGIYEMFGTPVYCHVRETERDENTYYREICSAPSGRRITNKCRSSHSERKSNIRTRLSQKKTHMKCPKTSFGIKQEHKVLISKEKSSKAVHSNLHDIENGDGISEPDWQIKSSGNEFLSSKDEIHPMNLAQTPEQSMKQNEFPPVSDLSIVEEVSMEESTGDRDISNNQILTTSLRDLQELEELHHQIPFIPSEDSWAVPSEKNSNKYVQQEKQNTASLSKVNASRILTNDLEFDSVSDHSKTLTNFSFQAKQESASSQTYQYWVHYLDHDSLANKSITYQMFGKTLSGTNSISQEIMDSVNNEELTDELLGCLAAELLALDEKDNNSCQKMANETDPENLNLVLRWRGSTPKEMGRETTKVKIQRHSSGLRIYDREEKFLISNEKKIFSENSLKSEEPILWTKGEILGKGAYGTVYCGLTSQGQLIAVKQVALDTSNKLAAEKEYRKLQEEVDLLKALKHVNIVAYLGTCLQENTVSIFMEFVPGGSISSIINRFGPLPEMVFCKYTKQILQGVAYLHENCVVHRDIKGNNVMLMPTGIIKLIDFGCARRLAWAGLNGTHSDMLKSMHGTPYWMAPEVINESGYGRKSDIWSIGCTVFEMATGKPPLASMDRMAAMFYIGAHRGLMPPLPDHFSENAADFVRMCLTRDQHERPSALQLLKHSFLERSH
Chain of UniProt P51956 (whole entry, looked up): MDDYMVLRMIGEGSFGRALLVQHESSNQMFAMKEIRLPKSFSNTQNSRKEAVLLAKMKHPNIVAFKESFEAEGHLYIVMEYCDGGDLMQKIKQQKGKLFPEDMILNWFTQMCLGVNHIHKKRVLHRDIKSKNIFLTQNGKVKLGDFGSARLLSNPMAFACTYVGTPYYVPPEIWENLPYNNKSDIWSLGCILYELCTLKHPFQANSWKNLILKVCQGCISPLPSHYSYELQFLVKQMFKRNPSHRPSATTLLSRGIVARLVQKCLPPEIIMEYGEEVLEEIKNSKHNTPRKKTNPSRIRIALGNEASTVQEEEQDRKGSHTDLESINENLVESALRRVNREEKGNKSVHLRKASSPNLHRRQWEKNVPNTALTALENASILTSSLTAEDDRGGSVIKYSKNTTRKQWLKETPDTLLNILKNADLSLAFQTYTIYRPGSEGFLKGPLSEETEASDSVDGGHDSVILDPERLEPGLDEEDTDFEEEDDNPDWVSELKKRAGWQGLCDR
Chain of UniProt Q09013 (whole entry, looked up): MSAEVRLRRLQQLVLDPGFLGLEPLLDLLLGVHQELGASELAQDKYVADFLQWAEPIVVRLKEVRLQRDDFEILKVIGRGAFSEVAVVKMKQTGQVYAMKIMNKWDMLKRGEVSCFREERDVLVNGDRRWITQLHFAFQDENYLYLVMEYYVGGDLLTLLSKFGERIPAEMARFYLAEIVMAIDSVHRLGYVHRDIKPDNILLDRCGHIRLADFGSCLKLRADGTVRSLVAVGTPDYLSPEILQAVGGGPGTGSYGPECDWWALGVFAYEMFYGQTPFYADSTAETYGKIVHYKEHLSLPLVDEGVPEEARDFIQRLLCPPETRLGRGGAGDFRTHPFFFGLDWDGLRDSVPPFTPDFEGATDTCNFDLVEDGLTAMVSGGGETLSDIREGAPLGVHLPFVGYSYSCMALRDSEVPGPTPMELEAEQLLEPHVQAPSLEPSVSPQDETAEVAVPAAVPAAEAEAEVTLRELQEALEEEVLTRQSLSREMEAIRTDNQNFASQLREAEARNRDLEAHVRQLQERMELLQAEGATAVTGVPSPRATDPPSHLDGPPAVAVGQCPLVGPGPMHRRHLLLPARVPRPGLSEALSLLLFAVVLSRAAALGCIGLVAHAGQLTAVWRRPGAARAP
Chain of UniProt Q15349 (whole entry, looked up): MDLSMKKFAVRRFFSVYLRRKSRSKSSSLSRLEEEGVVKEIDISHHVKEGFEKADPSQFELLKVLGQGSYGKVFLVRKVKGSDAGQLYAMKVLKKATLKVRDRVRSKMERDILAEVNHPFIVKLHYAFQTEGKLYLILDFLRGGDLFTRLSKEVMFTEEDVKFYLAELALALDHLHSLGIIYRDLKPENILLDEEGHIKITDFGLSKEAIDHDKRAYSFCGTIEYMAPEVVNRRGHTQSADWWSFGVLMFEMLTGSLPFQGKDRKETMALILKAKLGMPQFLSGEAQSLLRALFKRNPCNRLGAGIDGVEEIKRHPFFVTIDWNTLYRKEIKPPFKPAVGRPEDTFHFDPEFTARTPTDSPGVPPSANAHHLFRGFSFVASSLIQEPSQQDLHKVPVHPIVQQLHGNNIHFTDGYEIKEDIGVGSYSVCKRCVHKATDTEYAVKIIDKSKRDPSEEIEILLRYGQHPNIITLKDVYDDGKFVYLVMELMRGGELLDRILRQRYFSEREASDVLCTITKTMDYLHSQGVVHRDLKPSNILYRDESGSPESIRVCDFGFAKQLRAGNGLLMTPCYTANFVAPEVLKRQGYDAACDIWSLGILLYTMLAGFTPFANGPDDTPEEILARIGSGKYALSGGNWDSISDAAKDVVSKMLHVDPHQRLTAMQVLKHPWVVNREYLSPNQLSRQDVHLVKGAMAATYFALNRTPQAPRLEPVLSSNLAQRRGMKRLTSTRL
Chain of UniProt Q9UQB9 (whole entry, looked up): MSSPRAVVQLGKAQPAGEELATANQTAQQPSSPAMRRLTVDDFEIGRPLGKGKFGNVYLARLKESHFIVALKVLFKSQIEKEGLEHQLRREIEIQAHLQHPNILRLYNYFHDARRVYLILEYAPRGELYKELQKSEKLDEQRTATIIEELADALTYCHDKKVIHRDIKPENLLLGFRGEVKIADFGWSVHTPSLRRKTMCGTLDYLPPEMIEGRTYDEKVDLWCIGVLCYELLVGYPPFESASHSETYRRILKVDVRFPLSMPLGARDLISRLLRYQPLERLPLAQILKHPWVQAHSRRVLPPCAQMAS
Chain of UniProt Q52WX2 (whole entry, looked up): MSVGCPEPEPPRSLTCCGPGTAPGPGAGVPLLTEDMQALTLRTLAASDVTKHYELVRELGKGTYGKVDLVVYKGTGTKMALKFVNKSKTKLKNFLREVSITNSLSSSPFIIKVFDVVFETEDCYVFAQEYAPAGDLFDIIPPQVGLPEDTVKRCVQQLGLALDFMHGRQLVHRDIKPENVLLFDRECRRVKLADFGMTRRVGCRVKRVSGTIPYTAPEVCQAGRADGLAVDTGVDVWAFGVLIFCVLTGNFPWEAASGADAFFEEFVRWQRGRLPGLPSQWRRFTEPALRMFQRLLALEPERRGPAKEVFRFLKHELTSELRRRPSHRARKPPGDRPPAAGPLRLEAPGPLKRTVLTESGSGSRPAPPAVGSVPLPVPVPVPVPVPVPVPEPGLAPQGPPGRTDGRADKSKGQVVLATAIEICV

Sample 1
Host: human
Matrix: microsomes or S9
Concentration: 2 µM
Time: 0.5 h
Endpoint: remaining compound
SMILES = Cc1ccc(S(=O)(=O)C(C#N)c2nc3ccccc3nc2N2CC(C)OC(C)C2)cc1C (centres unmarked); result = 5.14%
SMILES = CC(C)n1cc(NC(=O)C2(C)Oc3ccccc3NC2=O)cn1 (centres unmarked); result = 86%
SMILES = Cn1nc(CNC(=O)C2CC(=O)N(C3CCCCC3)C2)c2c1CCN(S(C)(=O)=O)C2 (centres unmarked); result = 64.3%
SMILES = COc1ccc(C)cc1NC(=O)c1[nH]c(C)c(S(=O)(=O)N2CCCC2)c1C; result = 0.999%
SMILES = Nc1ncc(Br)cc1S(=O)(=O)NCCC(=O)NCc1ccco1; result = > 100%

Sample 2
SMILES: O=C(Nc1ccc(Oc2ccc(F)cc2)cc1)N1CCc2ncccc2[C@H]1c1ccc(F)cc1
Concentration: 1 µM
Endpoint: remaining binding
target = CSNK2A2 (Homo sapiens, UniProt P19784); read-out = cell-free assay; technique = competition with immobilised ligand; result = 100%
target = CDK17 (Homo sapiens, UniProt Q00537); read-out = cell-free assay; technique = competition with immobilised ligand; result = 96%
target = AKT2 (Homo sapiens, UniProt P31751); read-out = cell-free assay; technique = competition with immobilised ligand; result = 96%
target = NEK3 (Homo sapiens, UniProt P51956); read-out = cell-free assay; technique = competition with immobilised ligand; result = 64%
target = Non-receptor tyrosine-protein kinase TYK2, JH1 (TYK2, Homo sapiens, UniProt P29597); read-out = cell-free assay; technique = competition with immobilised ligand; result = 95%
target = CDK19 (Homo sapiens, UniProt Q9BWU1); technique = competition binding; result = 79%
target = Aurora kinase C (AURKC, Homo sapiens, UniProt Q9UQB9); read-out = cell-free assay; technique = competition with immobilised ligand; result = 87%
target = PIK3CA (Homo sapiens, UniProt P42336, E542K); read-out = cell-free assay; technique = competition with immobilised ligand; result = 71%
target = MET (Homo sapiens, UniProt P08581, Y1235D); read-out = cell-free assay; technique = competition with immobilised ligand; result = 86%
target = Ribosomal protein S6 kinase alpha-2, N-terminal kinase domain (RPS6KA2, Homo sapiens, UniProt Q15349); read-out = cell-free assay; technique = competition with immobilised ligand; result = 100%
target = MAP3K6 (Homo sapiens, UniProt O95382); read-out = cell-free assay; technique = competition with immobilised ligand; result = 100%
target = DMPK (Homo sapiens, UniProt Q09013); read-out = cell-free assay; technique = competition with immobilised ligand; result = 91%
target = SBK1 (Homo sapiens, UniProt Q52WX2); read-out = cell-free assay; technique = competition with immobilised ligand; result = 89%
target = FGFR1 (Homo sapiens, UniProt P11362); read-out = cell-free assay; technique = competition with immobilised ligand; result = 100%
target = MAP3K19 (Homo sapiens, UniProt Q56UN5); read-out = cell-free assay; technique = competition with immobilised ligand; result = 88%
target = DYRK1B (Homo sapiens, UniProt Q9Y463); read-out = cell-free assay; technique = competition with immobilised ligand; result = 88%
target = EGFR (Homo sapiens, UniProt P00533, del746-750); read-out = cell-free assay; technique = competition with immobilised ligand; result = 100%

Sample 3
Target: Histone acetyltransferase KAT6A, both winged helices, GST fusion (KAT6A, Homo sapiens, UniProt Q92794, residues 1-181)
Technique: protein binding microarray
Molecule type: double-stranded DNA, one strand shown
Matrix: in vitro
Concentration: not given
Notes: 8-mer, flanks averaged, mean of 2 arrays, mostly near background
Relative to: not given
Direction: higher = stronger binding
Endpoint: E-score
Construct (chain): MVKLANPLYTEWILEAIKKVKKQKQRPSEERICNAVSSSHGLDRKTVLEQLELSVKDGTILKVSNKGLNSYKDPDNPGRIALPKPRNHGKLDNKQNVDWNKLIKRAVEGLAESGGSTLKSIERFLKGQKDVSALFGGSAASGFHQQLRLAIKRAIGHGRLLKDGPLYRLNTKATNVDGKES
Oligonucleotide = CGACGAGC; result = 0.00574
Oligonucleotide = CTGGTGCA; result = -0.172
Oligonucleotide = ACGCTATG; result = 0.105
Oligonucleotide = AGTACCAG; result = -0.175
Oligonucleotide = CCCGACTA; result = 0.0758
Oligonucleotide = ACAAATAA; result = -0.0326
Oligonucleotide = CACATGAG; result = -0.0428
Oligonucleotide = ACTCGGTG; result = -0.0563

Sample 4
Target: RNA binding protein fox-1 homolog 2, RRM domain, GST-SBP tag (RBFOX2, Homo sapiens, UniProt O43251-10, residues 100-194)
Technique: RNA Bind-n-Seq
Molecule type: RNA
Matrix: in vitro
Concentration: 365 nM
Notes: natural RNA segment, single round, ends assumed
Relative to: no-protein control
Direction: higher = stronger binding
Endpoint: RBNS enrichment (R)
Target sequence (chain): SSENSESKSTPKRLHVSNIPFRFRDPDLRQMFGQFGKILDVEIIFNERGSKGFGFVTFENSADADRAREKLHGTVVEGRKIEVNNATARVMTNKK
Oligonucleotide = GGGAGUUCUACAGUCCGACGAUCCCUUUUGGAGUCAGUCUCCAUGCAGUAAACAGACCCAGCAGAACCUGCCCGUGGUGAGCUCAGCCAAGACUUGGCUCUCCAUGUUCCAGCCUCCGUCUGUGACUGGGUGGUGGAAUUCUCGGGUGCCAA; result = 0.249
Oligonucleotide = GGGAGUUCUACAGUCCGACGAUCCUGCACUUUUCCUUUCCAAAUGCAUCUCGUUGGAUAUGGAAUAGAUCGUAGAUGUUGUAGACUGAGAUUUGGGACUAUGUUGGGACCGUACAGGUGAAUGUGCCACCUCCUGGAAUUCUCGGGUGCCAA; result = 11.1
Oligonucleotide = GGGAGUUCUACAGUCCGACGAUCUCAGCCUGUGUGCUACUGAACUGUCGAAGGAAAUAGCCGCUCUGAUAGGUAGAUGUGAGUAAAAAGAACAGGAAAAAAUUGCUUCUUUUAUUGGUUUCCAAAGAAACAAAUGGAAUUCUCGGGUGCCAA; result = 1.2
Oligonucleotide = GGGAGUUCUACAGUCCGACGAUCGCCCCUGCGGGACUAGCACAGCUGGGCUGUGACAGUGGCAGAGGUGGCACCCAGAGCUUCUGUUAACUUGAGCCGGGAGCUGGGUUCUUUAGCAAGAUGAGCUUCUGGGGUGGAAUUCUCGGGUGCCAA; result = 0.367
Oligonucleotide = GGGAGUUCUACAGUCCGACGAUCUGCCUCCACCCAGGAGACUGAUGCACAAGAUCUGUUUGUGAAAGCCUGAUUUAAAAAGAAAAAAAAAAUUCCUUAAGCCAAAUGGUGUUCCAAGUUGGUUGCUGUGACAAUGGAAUUCUCGGGUGCCAA; result = 0.62
Oligonucleotide = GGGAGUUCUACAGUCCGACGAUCAGGUUGCAUUCUCCACCAAGGGAGUUAACCUACCUGAACUAAGUAGAAAUGCCAGUCUUCCACUACCCCCUCCCUGCCAUCUUUUCUUCUGCUACUUUGGGGAGUUGAUGUGGAAUUCUCGGGUGCCAA; result = 0.842
Oligonucleotide = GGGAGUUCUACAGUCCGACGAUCCAUUGUGAGAUCGAUCUGUCCUGGCAGUUAACACAAUGUGCAACAGUGUGUUAGCAUGGAACAGAACGCCUCUCACAAAACAAAGGACCGUUUUACAAAGGAUGAUCCGAUGGAAUUCUCGGGUGCCAA; result = 0.193
Oligonucleotide = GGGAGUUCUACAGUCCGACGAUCCACAGACUUCCCUAGUGUUUGUACUACACGUAGUCAGAAGCGAGUGUCCUUUUCUUUUGCUUCAGGCUAAGAGCUGCCUCGCUCUUUGUCCCCCCAUUAGGAUUCUAUUAUGGAAUUCUCGGGUGCCAA; result = 0.209

A few entries again (sample 2):
target = Non-receptor tyrosine-protein kinase TYK2, JH1 (TYK2, Homo sapiens, UniProt P29597); read-out = cell-free assay; technique = competition with immobilised ligand; result = 95%
target = NEK3 (Homo sapiens, UniProt P51956); read-out = cell-free assay; technique = competition with immobilised ligand; result = 64%
target = SBK1 (Homo sapiens, UniProt Q52WX2); read-out = cell-free assay; technique = competition with immobilised ligand; result = 89%
